Measured values of several laboratories.
Parts stem from different laboratories: compare values within a part only.

Sample 1 — method: protein binding microarray; form: double-stranded DNA, one strand shown; matrix: in vitro; concentration: not given; relative to: not given; reading: higher = stronger binding
Target: Histone acetyltransferase KAT6A, both winged helices, GST fusion (KAT6A, Homo sapiens, UniProt Q92794, residues 1-181)
Setting: 8-mer, flanks averaged, mean of 2 arrays, mostly near background
Target sequence (chain): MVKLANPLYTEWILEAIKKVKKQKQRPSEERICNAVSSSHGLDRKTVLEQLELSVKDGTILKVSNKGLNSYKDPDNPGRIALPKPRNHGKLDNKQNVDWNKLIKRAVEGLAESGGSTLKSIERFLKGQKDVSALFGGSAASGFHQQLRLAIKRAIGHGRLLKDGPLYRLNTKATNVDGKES
Oligonucleotide | E-score
CTAAGGCC | 0.0944
CCCGTAGA | 0.18
AGACCGAG | -0.0758
CATGCAAG | -0.0997
ATATATCG | -0.0407
ACCTCTGA | -0.134
CGGTTGAC | 0.155

Sample 2 — method: RNA Bind-n-Seq; form: RNA; matrix: in vitro; concentration: 200 nM; setting: whole 134-nt RNA, ends assumed; together with: 150 mM LiCl; relative to: input library; reading: higher = stronger binding; library: 7-deaza-guanosine replaces G
Target: Fragile X messenger ribonucleoprotein 1, C-terminal low-complexity region (Fmr1, Mus musculus, UniProt P35922)
Oligonucleotide | log2 enrichment
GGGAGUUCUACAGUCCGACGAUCUCAAGUCCUGUGCUACACAUCGUAUGUACCGAAUCGGUUUUUGGUUUGGAAAGGAAAGUAUUAUGUUACGCCGUUCGGAUCUGCACUUCCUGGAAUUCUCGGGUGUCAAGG | -1.19
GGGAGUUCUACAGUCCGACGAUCCCUCAAGUCCUGUGCUACACAUCGUAUGUACCGAAUCGGUUUGGUUUGGAGGAAAGUAUUAUGUUACGCCGUUCGGAUCUGCACUUCCAGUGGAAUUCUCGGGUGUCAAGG | -0.519
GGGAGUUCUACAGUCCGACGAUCCCUGUGCUACACAUCGUAUGUACCGAAUCGGGGAAAAAGGGGAAAGGGGAAAAAAAGGGGAAAGUAUUAUGUUACGCCGUUCGGAUCUGCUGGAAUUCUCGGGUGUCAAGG | 1.07
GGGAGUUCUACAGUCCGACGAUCCUCAAGUCCUGUGCUACACAUCGUAUGUACCGAAUCGGAAAGGUUUUUGGUGGAAAGUAUUAUGUUACGCCGUUCGGAUCUGCACUUCCAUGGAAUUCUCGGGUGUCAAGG | -0.195
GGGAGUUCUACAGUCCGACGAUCUGGCCCUGGUGGCAUGGGGGGAGGAAGAGGUGGCCUCAUGGAUCGUGGUGGUCCCGGUGGAAUGUUCAGAGGUGGCCGUGGUGGAGACAGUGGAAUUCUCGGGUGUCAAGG | 0.641
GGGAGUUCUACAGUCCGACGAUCUCAAGUCCUGUGCUACACAUCGUAUGUACCGAAUCGGAAAGGUUUUUGGUUUGGAAAGUAUUAUGUUACGCCGUUCGGAUCUGCACUUCCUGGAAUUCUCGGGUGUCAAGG | -2.26
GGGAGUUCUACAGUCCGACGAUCACCAUGCAGGUGGGCAUCUUUGGGAAGUGGGGCAAGGGGGGGAUAGGGAGGGGGGUAACACUUUGGGAACAGGUGGUCCCAGGUCGUUUAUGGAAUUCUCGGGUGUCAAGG | 1.28
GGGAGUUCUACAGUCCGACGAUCACCAUGCAGGUGGGCAUCUUUGGGAAGUGGGGCAAGGGGGAAAUAGGGAGGGGGGUAACACUUUGGGAACAGGUGGUCCCAGGUCGUUUCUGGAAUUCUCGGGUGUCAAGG | 1.13

Sample 3 — method: universal PBM; form: double-stranded DNA, one strand shown; matrix: in vitro; concentration: 600 nM; reading: higher = stronger binding
Target: Sal-like protein 4, full length isoform A (SALL4, Homo sapiens, UniProt Q9UJQ4, residues 1-1053)
Sequence of UniProt Q9UJQ4 (whole entry, looked up): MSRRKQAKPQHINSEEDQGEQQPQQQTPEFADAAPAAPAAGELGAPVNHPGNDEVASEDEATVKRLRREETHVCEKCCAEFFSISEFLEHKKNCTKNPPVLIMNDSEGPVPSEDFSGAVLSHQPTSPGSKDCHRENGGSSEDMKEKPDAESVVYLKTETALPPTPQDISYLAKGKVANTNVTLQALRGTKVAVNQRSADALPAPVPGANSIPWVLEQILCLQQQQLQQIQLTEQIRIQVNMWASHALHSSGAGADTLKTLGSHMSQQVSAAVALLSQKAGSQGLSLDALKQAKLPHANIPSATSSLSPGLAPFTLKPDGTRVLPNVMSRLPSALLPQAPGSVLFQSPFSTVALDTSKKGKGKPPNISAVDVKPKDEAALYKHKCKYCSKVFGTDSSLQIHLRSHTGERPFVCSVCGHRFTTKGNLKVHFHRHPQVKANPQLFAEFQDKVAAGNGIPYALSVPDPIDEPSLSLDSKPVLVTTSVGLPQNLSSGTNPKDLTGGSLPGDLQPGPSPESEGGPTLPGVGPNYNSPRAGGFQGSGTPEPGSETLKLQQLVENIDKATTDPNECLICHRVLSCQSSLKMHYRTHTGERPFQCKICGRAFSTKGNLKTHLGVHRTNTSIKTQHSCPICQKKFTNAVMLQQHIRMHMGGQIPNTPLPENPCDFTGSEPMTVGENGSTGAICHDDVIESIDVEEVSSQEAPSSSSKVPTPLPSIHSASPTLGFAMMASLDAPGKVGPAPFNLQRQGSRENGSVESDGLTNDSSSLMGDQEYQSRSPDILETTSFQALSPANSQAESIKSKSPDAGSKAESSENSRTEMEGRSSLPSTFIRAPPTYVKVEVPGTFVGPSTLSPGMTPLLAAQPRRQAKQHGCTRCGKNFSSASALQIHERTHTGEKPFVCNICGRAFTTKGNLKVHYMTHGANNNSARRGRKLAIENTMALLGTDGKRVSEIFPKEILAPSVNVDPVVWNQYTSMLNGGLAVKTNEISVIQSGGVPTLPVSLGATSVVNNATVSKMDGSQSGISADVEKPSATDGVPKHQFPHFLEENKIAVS
Setting: 8-mer, flanks averaged, mean of replicates
Oligonucleotide | E-score
CAAATAGG | 0.0728
ACCCTATC | -0.154
ATCACTAC | 0.0827
AGACCCAG | -0.329
GCTCAATA | 0.111
GCAGTTCC | -0.148
AAAATGCA | 0.165
ATAGGTTG | -0.012

Other studies, line by line
Molecule | target | assay | test system | setting | how to read | measurement | result
PhoQ, residues 284 288 289 292 302 303 TAVSDG | PhoP, residues 12 14 15 18 19 AQCLL (Escherichia coli, UniProt P23836) | Sort-seq, item: YFP reporter | E. coli | PhoQ-PhoP variant library, together with: 10 µM Mg2+ | relative to: high Mg2+ state, higher = stronger signaling | fold induction | 0.536

Repeated from above (sample 1):
Oligonucleotide | E-score
ACCTCTGA | -0.134
CGGTTGAC | 0.155
